Measured values collected from several papers.
Protocols differ between the studies behind these lines.
CDK19: Cyclin-dependent kinase 19 (CDK19, Homo sapiens, UniProt Q9BWU1)
CDK19 with cyclin C: Cyclin-dependent kinase 19, with cyclin C (CDK19, Homo sapiens, UniProt Q9BWU1)

For `CCN1CCN(Cc2ccc(NC(=O)c3ccc(C)c(NC(=O)c4cncc(-c5cccs5)c4)c3)cc2C(F)(F)F)CC1`, the remaining binding was 1.2% (CDK19; KinomeScan; 1 µM).
`CN1CCN(Cc2ccc(NC(=O)c3cccc(C#Cc4cnc(N)c5ncccc45)c3)cc2C(F)(F)F)CC1` has a remaining activity of 4.2% (CDK19; enzyme activity; 0.5 µM).
For `CN1CCN(Cc2ccc(-c3ccc(CO[C@H]4CCC[C@@H]4NC(=O)c4cc(-c5cnn(C)c5)cnc4N)cc3)cc2)CC1`, the inhibition was 1% (Cyclin-dependent kinase 19, inactive (CDK19, Homo sapiens, UniProt Q9BWU1); SelectScreen kinase profiling; 0.1 µM).
`Cc1cnc2nc1Nc1cccc(c1)COC/C=C/COCc1cc(ccc1OCCN1CCOCC1)N2` has a remaining binding of 100% (CDK19; 0.1 µM; baseline: DMSO control).
`COc1cc(Nc2nccc(-c3cnn4nc(OC)ccc34)n2)cc(C(F)(F)F)c1` gave a remaining binding of 92% (CDK19; binding, competition with immobilised ligand; 1 µM).
With `C=CC(=O)N1Cc2nc(-c3cc(-c4cc(Cl)cnc4Cl)c(F)cc3F)n(-c3ccncn3)c2C1` the inhibition was 6.5% (CDK19 with cyclin C; kinome panel; 1 µM).
With `C=CC(=O)N1CCCC(n2c(=O)c3ncccc3n(Cc3ccc(Oc4ccccc4)cc3)c2=O)C1` (stereo not shown) the remaining binding was 77% (CDK19; cell-free assay, competition with immobilised ligand; 1 µM).
The inhibition of `CCn1cc(C(=O)O)c(=O)c2c(N)c(F)c(NC3CCCCC3)cc21` is reported as 33.7% (CDK19 with cyclin C; kinase activity; 0.1 µM, with: ATP at Km).
`C=CC(=O)N1CCc2ccc(-n3c(=O)ccc4cnc5ccc(-c6cnn(C)c6)cc5c43)cc21` gave a remaining binding of 83% (CDK19; KINOMEscan; 1 µM; baseline: DMSO control).
For `CC(C)=CC1OC(C)(C)C2C=C3C(=O)C(Cl)=CC(O)C3C3C(O)C4OC4C(=O)C132` (stereo not shown), the remaining binding was 95% (CDK19; binder, KINOMEscan competition binding; 10 µM; baseline: DMSO control).
`C[C@]1(O)CCCN(c2nc(Nc3ccc(S(=O)(=O)N[C@H]4CC[C@H](CN5CCN(c6ccc(C7CCC(=O)NC7=O)cc6F)CC5)CC4)cc3)ncc2C(F)(F)F)C1` (stereo partly shown) has a remaining binding of 96% (CDK19; KINOMEscan; 1 µM).
For `COc1ccc(NC(=O)Nc2ccc3c(c2)C(=O)N(C(C)CO)CC(C)C(CN(C)Cc2ccc4c(c2)OCO4)O3)cc1` (stereo not shown), the remaining binding was 43% (CDK19; KinomeScan; 10 µM).
With `Cc1ccc(-c2c(/C=C(\C#N)C(=O)NC(C)C)n(CCCO)c3ncnc(N)c23)cc1` the remaining binding was 100% (CDK19; cell-free assay, competition with immobilised ligand; 1 µM).

Some of these lines once more:
For `CCN1CCN(Cc2ccc(NC(=O)c3ccc(C)c(NC(=O)c4cncc(-c5cccs5)c4)c3)cc2C(F)(F)F)CC1`, the remaining binding was 1.2% (CDK19; KinomeScan; 1 µM).
The inhibition of `CCn1cc(C(=O)O)c(=O)c2c(N)c(F)c(NC3CCCCC3)cc21` is reported as 33.7% (CDK19 with cyclin C; kinase activity; 0.1 µM, with: ATP at Km).
